Assay results pooled from the literature.
Numbered parts are unrelated; each lists some results of a single study. Changes are numbered by the printed parent chain.

Sample 1
Target: CCND1, cyclin fold, Cln2 fusion (human)
Technique: yeast growth competition, sequencing
Medium: yeast
Setting: weak parent motif
Relative to: not given
Reading: higher = stronger binding
Measurement: normalised enrichment score
Starting sequence: SAMHD1 docking peptide (human); ASKSRVQLFKDDP; partner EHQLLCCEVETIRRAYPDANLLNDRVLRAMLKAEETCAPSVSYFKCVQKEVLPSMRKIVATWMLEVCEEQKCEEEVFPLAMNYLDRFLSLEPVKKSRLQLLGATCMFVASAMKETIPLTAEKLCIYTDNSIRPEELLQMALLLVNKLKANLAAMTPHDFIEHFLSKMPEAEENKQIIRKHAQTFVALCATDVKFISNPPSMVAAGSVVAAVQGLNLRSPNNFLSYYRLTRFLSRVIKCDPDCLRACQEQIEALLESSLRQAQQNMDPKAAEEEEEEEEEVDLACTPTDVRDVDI
Change = ASKSRIQLFKDDP [V6I]; value = 0.252
Change = ASKSRVQLFKWDP [D11W]; value = 0.277
Change = ASKSRVPLFKDDP [Q7P]; value = 0.12
Change = ASKSRVQLFCDDP [K10C]; value = 0.697
Change = ASKSRVQLFKEDP [D11E]; value = 0.747
Change = ASKSRNQLFKDDP [V6N]; value = -0.00957
Change = ASKSRVQLFMDDP [K10M]; value = 0.801
Change = ASISRVQLFKDDP [K3I]; value = 0.57
Change = ALKSRVQLFKDDP [S2L]; value = 0.217
Change = ASKSRVVLFKDDP [Q7V]; value = 0.38
Change = ASKSRVQLFYDDP [K10Y]; value = 0.294
Change = AEKSRVQLFKDDP [S2E]; value = 0.333
Change = ASCSRVQLFKDDP [K3C]; value = 0.697
Change = ASKSRVQLTKDDP [F9T]; value = -0.0424
Change = ASVSRVQLFKDDP [K3V]; value = 0.318
Change = ASKVRVQLFKDDP [S4V]; value = 1.06
Change = ASKSKVQLFKDDP [R5K]; value = 0.917
Change = ARKSRVQLFKDDP [S2R]; value = -0.295
Change = ASKSRVFLFKDDP [Q7F]; value = 0.273
Change = ASKSRVQLFKDQP [D12Q]; value = 0.195

Sample 2
Target: TAR DNA-binding protein 43, full length, His tag (TARDBP, Homo sapiens, UniProt Q13148, residues 1-414)
Technique: RNA Bind-n-Seq
Molecule type: RNA
Medium: in vitro
Concentration: 20 nM
Setting: 6-mer, flanks averaged, single round
Together with: 150 mM LiCl
Relative to: input library
Reading: higher = stronger binding
Measurement: 6-mer enrichment (R)
Sequence = AACGCC; value = 0.837
Sequence = AGGUAG; value = 1.07
Sequence = AAACCU; value = 0.813
Sequence = CGUCGU; value = 0.991
Sequence = GAUCAU; value = 0.851
Sequence = GGCUUU; value = 1.01
Sequence = GAUCCA; value = 0.833
Sequence = ACAGAC; value = 0.795
Sequence = CACGUC; value = 0.857
Sequence = AUAUUG; value = 1.01
Sequence = AUGUGA; value = 1.12
Sequence = GCGGGA; value = 1.11
Sequence = UGACCC; value = 1.02
Sequence = GCCGAC; value = 0.871
Sequence = AACUCU; value = 0.914
Sequence = CCCCUU; value = 1.31
Sequence = UGCUAC; value = 0.886
Sequence = AGCACA; value = 0.877
Sequence = GAUAAG; value = 0.949

Sample 3
Target: Prothrombin, mature alpha-thrombin (F2, Homo sapiens, UniProt P00734)
Technique: aptamer microarray, sandwich
Molecule type: DNA with 2'F-ANA
Medium: in vitro
Concentration: 200 nM
Setting: whole 15-mer aptamer, many near background
Together with: Cy3 exosite-II aptamer, 400 nM
Reading: higher = stronger binding
Measurement: mean fluorescence intensity
Sequence: GGTTGGTGTGGTTGG
Modification = 2'F-ANA at 1 3 6 7 10 13; value = 74.4 a.u.
Modification = 2'F-ANA at 2 3 4 5 10 11 13 15; value = 50.2 a.u.
Modification = 2'F-ANA at 2 4 7 8 9 10 11 15; value = 84.2 a.u.
Modification = 2'F-ANA at 1 3 4 5 6 9 11 13; value = 50.2 a.u.
Modification = 2'F-ANA at 1 8 9 12 13 14; value = 95.2 a.u.
Modification = 2'F-ANA at 5 8 10 11; value = 47.7 a.u.
Modification = 2'F-ANA at 2 5 8 9 11 14 15; value = 54 a.u.
Modification = 2'F-ANA at 1 3 4 7 12 13 14 15; value = 92 a.u.
Modification = 2'F-ANA at 1 2 3 4 5 7 9 13 14 15; value = 47.6 a.u.
Modification = 2'F-ANA at 3 4 5 6 8 10 13; value = 51 a.u.
Modification = 2'F-ANA at 4 5 6 7 9 13 14; value = 44.3 a.u.
Modification = 2'F-ANA at 2 7 8 10 11 12; value = 181 a.u.
Modification = 2'F-ANA at 1 2 6 7 8 9 15; value = 160 a.u.
Modification = 2'F-ANA at 1 3 4 5 8 9 10 12 13 15; value = 47.3 a.u.
Modification = 2'F-ANA at 1 2 3 9 10 13 15; value = 65.5 a.u.
Modification = 2'F-ANA at 1 2 4 5 7 11 12 14; value = 47.1 a.u.
Modification = 2'F-ANA at 1 2 4 5 9 14; value = 43.1 a.u.
Modification = 2'F-ANA at 1 2 4 7 10 12 13 15; value = 77.5 a.u.
Modification = 2'F-ANA at 3 5 6 8 9 10 12 13; value = 55.7 a.u.
Modification = 2'F-ANA at 3 7 8 10 14; value = 489 a.u.
Modification = 2'F-ANA at 4 6 7 9 13 14 15; value = 64.1 a.u.
Modification = 2'F-ANA at 2 4 7 8 9 11; value = 324 a.u.
Modification = 2'F-ANA at 2 3 4 5 6 7 8 12 13 15; value = 117 a.u.
Modification = 2'F-ANA at 1 2 4 5 7 8 9 10; value = 51.7 a.u.
Modification = 2'F-ANA at 2 6 8 10 13 14 15; value = 75.2 a.u.

Sample 4
Target: OGT, full length, His-tagged (human)
Technique: phage display, sequencing
Medium: in vitro
Concentration: 1 µg OGT
Setting: single substitutions, 15-mer displayed peptide, unchanged parent 19.6
Relative to: input library
Reading: higher = stronger binding
Measurement: fold enrichment
Starting sequence: peptide; TAPFYPPAYQIQVFK
Change = P7K; value = 0.756 fold
Change = P6M; value = 1.5 fold
Change = A8Q; value = 15.6 fold
Change = A8M; value = 18.5 fold
Change = F4K; value = 5.48 fold
Change = P6H; value = 0.907 fold
Change = Q10W; value = 2.66 fold
Change = P6E; value = 0.812 fold
Change = P3N; value = 23.5 fold
Change = I11D; value = 0.412 fold
Change = F14I; value = 12.8 fold
Change = P3T; value = 21.8 fold
Change = Y5F; value = 32.5 fold
Change = A2S; value = 8.86 fold
Change = F4P; value = 7.8 fold
Change = Y5E; value = 0.384 fold
Change = A2Y; value = 22.3 fold
Change = Q12F; value = 10 fold
Change = I11L; value = 1.25 fold
Change = Q10I; value = 4.04 fold

Sample 5
Target: Interferon regulatory factor 7, full length, phosphomimetic (IRF7, Homo sapiens, UniProt Q92985, residues 1-503, S101K/S471D/S472D/S475D/S476D/S477D/S483D/S484D/S487D)
Technique: protein-binding microarray
Molecule type: double-stranded DNA, one strand shown
Medium: in vitro
Concentration: 250 nM
Setting: 60-bp whole probe
Together with: salmon DNA 0.4 mg/ml
Relative to: random background probes
Reading: higher = stronger binding
Measurement: log fluorescence
Shared flanks, not repeated: GCCTAGCAC … GTCTTGATTCGCTTGACGCTGCTG
Target sequence (chain): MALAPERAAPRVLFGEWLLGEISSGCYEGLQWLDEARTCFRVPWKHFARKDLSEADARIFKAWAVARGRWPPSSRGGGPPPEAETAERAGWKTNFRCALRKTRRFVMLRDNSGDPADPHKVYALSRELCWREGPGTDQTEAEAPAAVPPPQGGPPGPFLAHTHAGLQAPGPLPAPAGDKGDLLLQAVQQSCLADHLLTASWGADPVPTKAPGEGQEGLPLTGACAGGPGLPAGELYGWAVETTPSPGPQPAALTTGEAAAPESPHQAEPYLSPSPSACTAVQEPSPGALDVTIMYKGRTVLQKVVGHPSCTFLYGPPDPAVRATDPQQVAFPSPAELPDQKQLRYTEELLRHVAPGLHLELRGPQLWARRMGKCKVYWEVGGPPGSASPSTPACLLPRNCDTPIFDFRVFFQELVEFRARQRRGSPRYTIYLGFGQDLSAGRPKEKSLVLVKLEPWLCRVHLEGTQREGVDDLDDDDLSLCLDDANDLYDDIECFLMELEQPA
Sequence = GACAGACTGGACTTTCGGGACGTGCTA; value = -0.383 z-score
Sequence = GACGGTTTCGGTCTCGGAACGTGCTAG; value = 8.42 z-score
Sequence = GACGAACTGATACTGGAGACGTGCTAG; value = -0.059 z-score
Sequence = TTAGGTATCGGATTCGGTTAGTGCTAG; value = 4.69 z-score
Sequence = GACGATATCAGTTTCGAGTCGTGCTAG; value = 8.25 z-score
Sequence = TTAGGTTCCCTTTTGCTTTAGTGCTAG; value = 4.08 z-score
Sequence = TTAGGTCTCGTTTTCCTTTAGTGCTAG; value = 8.15 z-score
Sequence = ACTCATTTTCATTTTGTGTCGTGCTAG; value = 2.38 z-score
Sequence = TTAGGACTGGGCCTCGGTTAGTGCTAG; value = 0.17 z-score
Sequence = TTAGGTATCCAACTGCTTTAGTGCTAG; value = -0.319 z-score
Sequence = TCACCTTCAGCTCTAGGACTGTGCTAG; value = -0.277 z-score
Sequence = CAGCATGCCTGTCCCTGGGTGTGCTAG; value = -0.564 z-score
Sequence = TTAGATCGCAGTTTCGATTAGTGCTAG; value = 7.84 z-score
Sequence = TTAGATATCGTGTATCGATTAGTGCTA; value = 0.165 z-score
Sequence = TCAAGGCCAGGGTTTCTGTTGTGCTAG; value = 0.17 z-score
Sequence = TCAGTTTCTATTTTCTGACTGTGCTAG; value = 9.33 z-score
Sequence = TTAGGTTTCGGTATCGGATAGTGCTAG; value = 10.7 z-score
Sequence = TCATTCCTGATCTCTGGTACTGTGCTA; value = 1.4 z-score

Sample 6
Target: ABI1, truncated, D143A, DHFR fusion (Arabidopsis thaliana)
Technique: DHFR PCA, deep sequencing
Medium: yeast
Setting: methotrexate growth selection, single substitutions
Together with: (+)-ABA 0.0091 µM
Relative to: wild-type fitted maximum
Reading: higher = stronger binding
Measurement: relative binding score
Starting sequence: PYL1, truncated, DHFR fusion (Arabidopsis thaliana); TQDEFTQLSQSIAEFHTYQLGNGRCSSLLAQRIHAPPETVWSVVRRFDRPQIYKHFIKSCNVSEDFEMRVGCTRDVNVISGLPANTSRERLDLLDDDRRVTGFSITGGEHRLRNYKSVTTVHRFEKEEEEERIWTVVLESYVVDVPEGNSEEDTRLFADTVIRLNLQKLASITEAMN; partner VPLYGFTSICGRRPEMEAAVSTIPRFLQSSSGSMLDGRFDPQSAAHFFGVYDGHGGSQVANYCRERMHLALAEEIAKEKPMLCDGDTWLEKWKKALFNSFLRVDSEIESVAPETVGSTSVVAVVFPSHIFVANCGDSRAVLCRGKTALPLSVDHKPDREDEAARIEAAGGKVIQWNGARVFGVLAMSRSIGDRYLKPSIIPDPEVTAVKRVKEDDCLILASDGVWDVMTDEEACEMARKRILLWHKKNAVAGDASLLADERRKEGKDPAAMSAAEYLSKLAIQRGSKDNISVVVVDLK
Change = L138A; value = 0.771%
Change = C72D; value = 27.6%
Change = V145L; value = -3.73%
Change = R113D; value = -5.07%
Change = Y53D; value = -2.99%
Change = T120M; value = -4.3%
Change = K54P; value = -2.66%
Change = V100P; value = -5.37%
Change = E174S; value = 2.23%
Change = L20C; value = 39.1%
Change = E64T; value = 25.6%
Change = N149E; value = 30.6%
Change = R74V; value = -1.63%
Change = T39E; value = 1.38%
Change = R49A; value = 22.3%
Change = P83I; value = -6.58%
Change = S63K; value = 34.7%
